Experimental data gathered from unrelated publications.
Protocols differ between the studies behind these lines.
Target: Cyclin-dependent kinase 2 homolog (CRK2, Plasmodium falciparum, UniProt P61075)

Structure (SMILES) | test | setting | how to read | quantity | value
Nc1ncc2c(n1)-c1c([nH]c3ccc(C4=CCOCC4)cc13)CCC2 | binding, competition with immobilised ligand | 1 µM |  | remaining binding | 100%
C=CC(=O)N1CCc2ccc(-n3c(=O)ccc4cnc5ccc(-c6cnn(C)c6)cc5c43)cc21 | KINOMEscan | 1 µM | relative to: control | remaining binding | 94%
CNC(=O)C1CCN(c2cc(C)c(F)cc2NC(=O)c2ccc(-c3cc(O)ccc3C)c(C)c2)CC1 | binding, competition with immobilised ligand | 1 µM |  | remaining binding | 97%
Cc1ccc(-c2c(/C=C(\C#N)C(=O)NC(C)C)n(CCCO)c3ncnc(N)c23)cc1 | cell-free assay, competition with immobilised ligand | 1 µM |  | remaining binding | 100%
CCN1CCN(Cc2ccc(C(=O)Nc3ccc(C)c(NCc4cnc5[nH]ccc5c4OC)c3)cc2C(F)(F)F)CC1 | binding, competition with immobilised ligand | 1 µM |  | remaining binding | 100%
COc1c(Cl)cccc1Nc1c(-c2ccncc2C#C[C@@]2(C)CCCN2C(=O)/C=C/CN(C)C)[nH]c2c1C(=O)NCC2 | cell-free assay, competition with immobilised ligand | 3 µM |  | remaining binding | 73%
CNC1C[S+]2CC[S+]3CC[S+](C1)[Ru-4]321([N]=C=S)[n]2c3ccc(OC)cc3c3c4c(c5cc(F)c[n+]1c5c32)C(=O)NC4=O (centres unmarked) | KinomeScan | 0.1 µM | relative to: control | binding | 99%
C=CC(=O)N1CCCC(n2c(=O)c3ncccc3n(Cc3ccc(Oc4ccccc4)cc3)c2=O)C1 (centres unmarked) | cell-free assay, competition with immobilised ligand | 1 µM |  | remaining binding | 95%
CC(C)=CC1OC(C)(C)C2C=C3C(=O)C(Cl)=CC(O)C3C3C(O)C4OC4C(=O)C132 (centres unmarked) | cell-free assay, competition with immobilised ligand | 10 µM |  | remaining binding | 75%
Cc1cnc2nc1Nc1cccc(c1)COC/C=C/COCc1cc(ccc1OCCN1CCOCC1)N2 | cell-free assay | 0.1 µM |  | remaining signal | 86%
COc1cc(Nc2nccc(-c3cnn4nc(OC)ccc34)n2)cc(C(F)(F)F)c1 | binding, competition with immobilised ligand | 1 µM |  | remaining binding | 81%

Repeated from above:
Structure (SMILES) | test | setting | how to read | quantity | value
C=CC(=O)N1CCCC(n2c(=O)c3ncccc3n(Cc3ccc(Oc4ccccc4)cc3)c2=O)C1 (centres unmarked) | cell-free assay, competition with immobilised ligand | 1 µM |  | remaining binding | 95%
